Results from different studies.
Each numbered part is a random draw from the data of one study; scales do not carry over between parts.

Study 1 — technique: Sort-seq; item: YFP reporter; sample: E. coli; setting: PhoQ-PhoP variant library; together with: 10 µM Mg2+; reference: high Mg2+ state; reading: higher = stronger signaling
Molecule: PhoQ, residues 284 288 289 292 302 303 ASTSDA
It gave 4.72 for fold induction (PhoP, residues 12 14 15 18 19 TPWTL (Escherichia coli, UniProt P23836)).
The fold induction was 13.4 (PhoP, residues 12 14 15 18 19 NFFVT (Escherichia coli, UniProt P23836)).
It gave 9.87 for fold induction (PhoP, residues 12 14 15 18 19 LHHYF (Escherichia coli, UniProt P23836)).
For PhoP, residues 12 14 15 18 19 VGHWL (Escherichia coli, UniProt P23836): fold induction read 9.29.

Study 2 — technique: protein binding microarray; molecule type: double-stranded DNA, one strand shown; sample: in vitro; concentration: not given; reference: not given; reading: higher = stronger binding
Target: Histone acetyltransferase KAT6A, winged helix 2, GST fusion (KAT6A, Homo sapiens, UniProt Q92794, residues 85-181)
Setting: 8-mer, flanks averaged, mean of 2 arrays, mostly near background
Residues (chain): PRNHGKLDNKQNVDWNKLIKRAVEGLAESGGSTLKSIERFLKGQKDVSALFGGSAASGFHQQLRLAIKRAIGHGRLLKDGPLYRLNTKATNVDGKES
With `CCCGGCAA` the E-score was 0.188.
The E-score of `ATTCTTAA` is reported as -0.052.
`ATTAGAAG` has an E-score of -0.0502.
For `TGCCCCCA`, the E-score was -0.145.
`GCGCACCA` gave an E-score of 0.147.
For `GTCAGATA`, the E-score was -0.0739.
The E-score of `CGGTATCC` is reported as 0.0766.
`GTGCGCAA` gave an E-score of 0.139.
`ACCCTAGA` has an E-score of 0.00749.
`AAACTACA` gave an E-score of 0.0752.
`ACGTAGAC` has an E-score of -0.264.
`CTGATGCC` gave an E-score of 0.0381.
`CGAGGCAG` has an E-score of 0.114.
For `TACCAGCA`, the E-score was -0.0764.
`GAGAAGAA` gave an E-score of 0.00963.
`GAACCGCC` has an E-score of 0.0418.
For `GCCACTCC`, the E-score was -0.0422.
`AACTCGAA` has an E-score of 0.0754.
The E-score of `CCGGTACA` is reported as -0.035.

Study 3 — technique: protein-binding microarray; molecule type: double-stranded DNA, one strand shown; sample: in vitro; concentration: 940 nM top; setting: 60-bp whole probe; together with: salmon DNA 0.4 mg/ml; reference: random background probes; reading: higher = stronger binding; all sequences stand within: GCCTAGCAC … GTCTTGATTCGCTTGACGCTGCTG
Target: Interferon regulatory factor 5, full length, phosphomimetic (IRF5, Homo sapiens, UniProt Q13568-2, residues 1-514, S451D/S453D/S456D/S462D)
For `TTAGGTTTCAGTTTCGGTTAGTGCTAG`, “fitted relative affinity” read 11.5 z-score.
`CCCACCATCTAGTTCTGCTTGTGCTAG`: “fitted relative affinity” 0.786 z-score.
Under “fitted relative affinity”, `GAGGATTCCAGTTTCGAGACGTGCTAG` is recorded as 3.46 z-score.
Under “fitted relative affinity”, `TCTCTTTTTGCTTTCTTTATGTGCTAG` is recorded as 4.88 z-score.
`TCATTTTTTACTTCGGGACTGTGCTAG` — result for “fitted relative affinity”: 1.01 z-score.
`TTAGGACTGGTGTATCGGTTAGTGCTA` — result for “fitted relative affinity”: 0.888 z-score.
`TCAGTTTTCGCTTTCTTACTGTGCTAG` — result for “fitted relative affinity”: 3.05 z-score.
Under “fitted relative affinity”, `TTAGATTTCGGTTTCGATTAGTGCTAG` is recorded as 9.44 z-score.
For `GACGGTGTCGGGACTGGGGACGTGCTA`, “fitted relative affinity” read 0.134 z-score.
`GGCGGTTTCCTACTGCTGACGTGCTAG` — result for “fitted relative affinity”: 0.883 z-score.
`GACGGTTTCCTACTGGTGACGTGCTAG`: “fitted relative affinity” 0.675 z-score.
Under “fitted relative affinity”, `TTAGGTATCGGTTTCAGTTAGTGCTAG` is recorded as 10.5 z-score.
`TTAGCTATCGGGTATCGGTTAGTGCTA`: “fitted relative affinity” 3.01 z-score.
`GACGGTTTTCTTTCCCTGACGTGCTAG` — result for “fitted relative affinity”: 1.43 z-score.

Study 4 — technique: EMSA with sequencing; molecule type: double-stranded DNA, one strand shown; sample: in vitro; concentration: 10 and 20 nM; reference: negative control set to 0; reading: higher = stronger binding
Target: Hepatocyte nuclear factor 3-alpha (Foxa1, Mus musculus, UniProt P35582, residues 1-468, full length assumed)
Setting: whole designed probe, mean of two concentrations, ends assumed
Target sequence (chain): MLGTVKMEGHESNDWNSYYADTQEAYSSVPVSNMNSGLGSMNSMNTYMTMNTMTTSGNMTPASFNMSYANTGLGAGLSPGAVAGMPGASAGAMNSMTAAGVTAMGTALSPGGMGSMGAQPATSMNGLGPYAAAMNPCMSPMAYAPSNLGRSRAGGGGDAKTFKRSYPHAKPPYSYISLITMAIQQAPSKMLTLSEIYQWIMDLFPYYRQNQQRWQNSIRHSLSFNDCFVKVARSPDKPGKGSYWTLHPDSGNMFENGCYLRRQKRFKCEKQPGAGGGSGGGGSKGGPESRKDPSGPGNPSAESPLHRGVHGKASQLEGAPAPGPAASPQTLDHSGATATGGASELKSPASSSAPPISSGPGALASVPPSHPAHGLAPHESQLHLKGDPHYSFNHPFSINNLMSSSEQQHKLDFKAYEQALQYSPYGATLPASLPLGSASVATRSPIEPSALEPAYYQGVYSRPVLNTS
Under “normalised bound fraction”, `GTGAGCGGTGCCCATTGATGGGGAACCTGAGGCGCTGCAGGCCCGGCTTCTGGCTGCGGGGGAGCTGTACCCTGAAGCCTCGCCGGAACTCGCGTCTGGGGCCAGCTCGGCGCACTAGAGTCAACAGGGACTGTATGCAAAACCCACTTCCTCCCAGGCCCTCTAGGGGGATGGTCAGGCTTCTGCAGAGATGGGGAGGATCCTTTCCTGGTAAGGGGATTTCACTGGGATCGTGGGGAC` is recorded as 0.0236 ratio.
`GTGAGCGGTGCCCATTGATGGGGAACATCTTCCCCCTCTTCCTTGCCCCACCAGCTCACCTTCCCGGGTTATTTGCACAAAGGAAAATAAATAAAGCCGGCATTCGTTAACGCAGTTCTGGCGCAAACTGCTGTTTGCTCTGGATCTAACATGGTCCTTTGGCGAGGCGTGGCTCCGGGAGAGCAAAGCACCGTGTCAGGGCCATGATCCGGGGTGGCCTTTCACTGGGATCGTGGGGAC` — result for “normalised bound fraction”: 0.37 ratio.
`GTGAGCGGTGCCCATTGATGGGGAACCACAGAGTTCAAAGTTGGCTGAGAAAATATACCAGTTGTCCTTGAAACATTCACTGTATTTGATGGCTATCTTTTCTCTAAACATATTGTAATGCAAATATAAAATTGTTTTGTTTTATAAAACAATAGAATACATCAGCTGAAGTTACCCCCAAAAGAAATGAAAGAAACTTCTGGGTGTGCCCTCAAAATTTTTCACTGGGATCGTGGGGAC`: “normalised bound fraction” 0.215 ratio.
`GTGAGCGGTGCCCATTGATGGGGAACAGACAAAAAATGTAGTTGTTCAACAGCTCAGGGAAGAAAGCCTGAGCTTGCCACAGGAGGAGACAGGGCTAAGGCTGGGGAGTTGGGGGGAGTGTAAATAAAGTAGAGGACTGGGCAGAGCTACAAGAAATATTTAGCATTCCTGGCTTCCCACAAAGGGTAGGTCAAGGAGAGGGAATGAGCAGTTGGGATGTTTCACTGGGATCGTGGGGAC` — result for “normalised bound fraction”: 0.23 ratio.
`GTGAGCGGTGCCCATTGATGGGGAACTTACCACATTTCTTACATGCATAGGGTTTCTCTCCAGTATGAGTTCTTTCATGTTCACGAAGATAACTTGAATAATTGAAGGCTTTATCACAATGTTTACATTTATATGTTTTCTCTCCAGTGTAAGTGCTCTGAGGCATTTGAAATACACTAGGAAAATCAAAAGGCTTCTCATACACTGGACCCTTATAAGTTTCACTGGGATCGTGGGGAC`: “normalised bound fraction” 0.407 ratio.
For `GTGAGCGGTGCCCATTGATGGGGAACTGCAAAGGGCAAGATAGTTTCTCTGCTGTTAGCTTCAAAGGTTGTAGGTAATAAATTAAAAACTATAAGCAAATTTAAAGAATTAAAAGAAAAGCAATTTACTCTTGAGACTGATTTAGGTAGGTAATTTATCACTTCTTTATATCTCTCCCAGGAGATTAACTAGAGAAACTGTGGATATTGTATCAATGAGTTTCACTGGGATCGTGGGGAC`, “normalised bound fraction” read -0.0347 ratio.
`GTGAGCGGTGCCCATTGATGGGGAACCTAATCTCTCTTGGCATCAGGACTTGGTCTTTTGCTGTAGGAGCCACACCAATGGATACCACTCAACCAAAGTGACCCTGGGACAGAGCCAGTATAATCTCGGTCCCTCGTGAGTCAAGCGTCTGGGATAAGTGAACAAACACTGGGCTGAAAACCTGGGACTGGCTGGTTGTTTAAGAGCTATCACCTGCTCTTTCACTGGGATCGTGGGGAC` — result for “normalised bound fraction”: 0.117 ratio.
`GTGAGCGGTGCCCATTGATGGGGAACTTAAGTGAAATCAACTGAAACCTTACTTTTTTTTGCTTTTATACCTAAAATAGAGGATTTAGATATATTTTCTAGGAACGATGATGTAATATGTAAACAAGGAATTTTGGTAATGTTTGAAATATTTTCTCATGGGGACACACCACTAAATTTGTCACCTCTAAAACAGTACTTAGGTTAAATGCTTTTTAAATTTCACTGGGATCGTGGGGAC` — result for “normalised bound fraction”: 0.293 ratio.
